Experimental data of several laboratories.
Numbered parts are unrelated; each lists some results of a single study. Values joined by “and” are separate records of one study, mostly repeats; a detail may differ.

Set 1
Compound: O=C(O)C1(O)Oc2cc(Cl)ccc2N(Cc2ccccc2)C1=O (centres unmarked)
Organism: Arabidopsis thaliana
Strain: Col-0
Measurement: hypocotyl length
50 µg/mL, seed germination, repetition mean: 1.32 cm
100 µg/mL, seed germination, single repetition: 1.21 cm and 1.2 cm and 1.27 cm and 1.22 cm
100 µg/mL, seed germination, repetition mean: 1.23 cm
50 µg/mL, seed germination, single repetition: 1.32 cm and 1.3 cm and 1.31 cm and 1.36 cm and 1.35 cm
3.125 µg/mL, seed germination, repetition mean: 2.1 cm
25 µg/mL, seed germination, repetition mean: 1.65 cm
12.5 µg/mL, seed germination, single repetition: 2.03 cm and 2 cm and 2.02 cm and 2.08 cm and 2.04 cm
12.5 µg/mL, seed germination, repetition mean: 2.02 cm
25 µg/mL, seed germination, single repetition: 1.69 cm and 1.68 cm and 1.66 cm and 1.62 cm and 1.63 cm

Set 2
Compound: Cc1c(F)cc2[nH]ncc2c1-c1c(C2CC2)cc2c(N3C[C@@H]4C[C@H]3CN4)nc(OC3CCOCC3)nc2c1OCc1ccccc1
Read-out: KRAS-RAF interaction
Action: inhibitor
Technique: TR-FRET
Together with: SOS-mediated nucleotide exchange
Measurement: inhibition
KRAS G12D with RAF: GTPase KRas, with RAF (KRAS, Homo sapiens, UniProt P01116, G12D)
KRAS with RAF: GTPase KRas, with RAF (KRAS, Homo sapiens, UniProt P01116)
KRAS G12D with RAF; 30 nM: -1.28% and -2.58%
KRAS G12D with RAF; 10 nM: 0.533% and -5.66%
KRAS with RAF; 1 µM: -4.11% and -0.631%
KRAS G12D with RAF; 3 µM: 32.3% and 21.2%
KRAS with RAF; 300 nM: 6.5% and -3.91%
KRAS G12D with RAF; 100 nM: -2.99% and -4.64%
KRAS with RAF; 10 µM: 5.16% and 15.3%

Set 3
Host: CD-1 mouse, female
Sample: plasma
Route: intravenous
Dose: 1 mg/kg
Measurement: volume of distribution (steady state)
Cc1ccc(O)c(C)c1-c1cnc2[nH]c(-c3cnc(N4CC5(CC(CN6CCN(c7ccc(NC8CCC(=O)NC8=O)cc7F)CC6)C5)C4)nc3)cc2c1C#N (centres unmarked): 3.9 L/kg
Cc1ccc(O)c(C)c1-c1cnc2[nH]c(-c3cnc(N4CCC5(CC4)CC(CN4CCN(c6ccc(NC7CCC(=O)NC7=O)cc6F)CC4)C5)nc3)cc2c1C#N (centres unmarked): 3.7 L/kg
Cc1ccc(O)c(C)c1-c1cnc2[nH]c(-c3cnc(N4CCC5(CC4)CC(N4CCN(c6ccc(NC7CCC(=O)NC7=O)cc6F)CC4)CO5)nc3)cc2c1C#N (centres unmarked): 3.8 L/kg
Cc1ccc(O)c(C)c1-c1cnc2[nH]c(-c3cnc(N4CCC(CN5CCN(c6ccc(NC7CCC(=O)NC7=O)cc6F)CC5)CC4)nc3)cc2c1C#N (centres unmarked): 2.7 L/kg
Cc1ccc(O)c(C)c1-c1cnc2[nH]c(-c3cnc(N4CCC(CN5CCN(c6ccc7c(c6F)CN(C6CCC(=O)NC6=O)C7=O)CC5)CC4)nc3)cc2c1C#N (centres unmarked): 1.6 L/kg
Cc1ccc(O)c(C)c1-c1cnc2[nH]c(-c3cnc(N4CCC(CN5CCN(c6cc7c(cc6F)n(C6CCC(=O)NC6=O)c(=O)n7C)CC5)CC4)nc3)cc2c1C#N (centres unmarked): 1.8 L/kg

Further values, each from its own experiment
CC[C@@]1(c2cccc(C(F)(F)F)c2)C2=C(Nc3n[nH]cc31)[C@H](F)C(C)(C)CC2=O (single isomer, unassigned) — fraction unbound (human plasma): 0.0197
